Experimental data from different studies.
Every numbered part comes from another study and shows a few of its results, in no order.
Sequence of UniProt O14733 (whole entry, looked up): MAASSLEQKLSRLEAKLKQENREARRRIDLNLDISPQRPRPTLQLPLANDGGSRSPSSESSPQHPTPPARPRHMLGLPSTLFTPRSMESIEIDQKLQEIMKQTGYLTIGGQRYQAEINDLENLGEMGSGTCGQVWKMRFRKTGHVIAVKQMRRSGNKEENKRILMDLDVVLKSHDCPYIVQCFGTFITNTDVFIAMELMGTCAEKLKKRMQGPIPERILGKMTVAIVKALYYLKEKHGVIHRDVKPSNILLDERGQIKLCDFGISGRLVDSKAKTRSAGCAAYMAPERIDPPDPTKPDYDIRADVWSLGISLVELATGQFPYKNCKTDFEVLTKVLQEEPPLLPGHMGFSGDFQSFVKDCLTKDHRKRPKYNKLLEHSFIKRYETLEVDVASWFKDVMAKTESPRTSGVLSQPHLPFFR
Sequence of UniProt Q8IW41 (whole entry, looked up): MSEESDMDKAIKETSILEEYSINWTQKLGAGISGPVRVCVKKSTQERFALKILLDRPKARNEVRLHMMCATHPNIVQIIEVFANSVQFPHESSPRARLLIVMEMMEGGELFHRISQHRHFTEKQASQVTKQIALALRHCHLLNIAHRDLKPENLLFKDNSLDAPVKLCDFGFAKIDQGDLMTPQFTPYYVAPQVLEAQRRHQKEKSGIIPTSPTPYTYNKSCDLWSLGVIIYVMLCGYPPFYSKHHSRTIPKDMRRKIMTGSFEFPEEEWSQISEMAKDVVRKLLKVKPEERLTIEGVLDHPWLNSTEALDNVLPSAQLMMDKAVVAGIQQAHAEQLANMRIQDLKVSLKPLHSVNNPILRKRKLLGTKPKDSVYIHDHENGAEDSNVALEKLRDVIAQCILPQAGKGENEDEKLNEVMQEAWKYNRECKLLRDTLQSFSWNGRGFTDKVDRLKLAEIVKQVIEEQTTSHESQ
Sequence of UniProt P07949 (whole entry, unmodified, looked up): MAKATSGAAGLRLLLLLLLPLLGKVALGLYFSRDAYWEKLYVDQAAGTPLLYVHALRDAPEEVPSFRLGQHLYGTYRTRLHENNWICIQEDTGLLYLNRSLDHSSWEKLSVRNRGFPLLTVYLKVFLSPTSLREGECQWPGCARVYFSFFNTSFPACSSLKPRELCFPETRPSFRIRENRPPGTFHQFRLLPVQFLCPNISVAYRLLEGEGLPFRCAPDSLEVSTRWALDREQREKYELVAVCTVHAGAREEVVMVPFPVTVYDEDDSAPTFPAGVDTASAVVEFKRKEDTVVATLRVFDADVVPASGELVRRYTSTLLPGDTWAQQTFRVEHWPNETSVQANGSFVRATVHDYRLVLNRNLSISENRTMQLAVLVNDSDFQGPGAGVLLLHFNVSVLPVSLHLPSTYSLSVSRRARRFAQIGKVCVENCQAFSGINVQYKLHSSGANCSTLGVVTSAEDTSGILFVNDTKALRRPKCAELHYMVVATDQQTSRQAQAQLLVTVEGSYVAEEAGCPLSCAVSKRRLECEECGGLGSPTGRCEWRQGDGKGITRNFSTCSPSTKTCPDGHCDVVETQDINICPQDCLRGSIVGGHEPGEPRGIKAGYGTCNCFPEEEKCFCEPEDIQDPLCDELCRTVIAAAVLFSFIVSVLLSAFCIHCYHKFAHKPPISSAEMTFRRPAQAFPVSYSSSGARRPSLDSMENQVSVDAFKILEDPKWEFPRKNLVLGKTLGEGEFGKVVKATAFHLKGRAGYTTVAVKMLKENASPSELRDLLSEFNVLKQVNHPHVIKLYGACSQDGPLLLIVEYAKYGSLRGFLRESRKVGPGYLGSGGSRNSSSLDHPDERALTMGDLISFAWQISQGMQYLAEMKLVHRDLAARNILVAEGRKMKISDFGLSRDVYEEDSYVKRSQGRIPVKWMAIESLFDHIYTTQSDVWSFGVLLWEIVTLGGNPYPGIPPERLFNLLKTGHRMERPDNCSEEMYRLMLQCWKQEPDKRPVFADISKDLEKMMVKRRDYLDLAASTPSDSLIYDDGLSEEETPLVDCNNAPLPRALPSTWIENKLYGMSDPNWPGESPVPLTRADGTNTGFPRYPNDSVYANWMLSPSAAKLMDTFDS
Sequence of UniProt Q8TDC3 (whole entry, looked up): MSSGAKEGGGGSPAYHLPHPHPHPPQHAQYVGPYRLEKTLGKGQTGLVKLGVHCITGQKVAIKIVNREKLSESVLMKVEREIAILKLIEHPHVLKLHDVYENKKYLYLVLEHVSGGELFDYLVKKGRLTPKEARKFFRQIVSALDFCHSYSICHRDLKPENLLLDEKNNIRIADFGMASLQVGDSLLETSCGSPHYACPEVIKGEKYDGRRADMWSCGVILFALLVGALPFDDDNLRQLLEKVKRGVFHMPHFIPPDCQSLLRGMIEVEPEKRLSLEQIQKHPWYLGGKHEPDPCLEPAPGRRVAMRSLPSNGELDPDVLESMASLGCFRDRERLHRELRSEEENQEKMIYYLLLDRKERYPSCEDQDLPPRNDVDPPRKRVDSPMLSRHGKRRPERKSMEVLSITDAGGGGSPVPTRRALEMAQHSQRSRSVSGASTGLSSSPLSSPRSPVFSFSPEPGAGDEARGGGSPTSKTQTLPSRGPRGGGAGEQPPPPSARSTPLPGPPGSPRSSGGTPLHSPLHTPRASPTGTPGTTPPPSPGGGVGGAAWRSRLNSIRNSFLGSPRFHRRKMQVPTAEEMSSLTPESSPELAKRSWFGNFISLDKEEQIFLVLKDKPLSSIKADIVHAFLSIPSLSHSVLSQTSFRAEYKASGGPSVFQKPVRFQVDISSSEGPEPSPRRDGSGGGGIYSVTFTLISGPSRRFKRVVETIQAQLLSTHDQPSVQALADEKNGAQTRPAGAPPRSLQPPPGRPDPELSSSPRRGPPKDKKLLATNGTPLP

Set 1 — observed: enzyme activity; action: inhibitor; concentration: 0.5 µM; baseline: control
Target: Proto-oncogene tyrosine-protein kinase ROS (ROS1, Homo sapiens, UniProt P08922)
Sequence of UniProt P08922 (whole entry, looked up): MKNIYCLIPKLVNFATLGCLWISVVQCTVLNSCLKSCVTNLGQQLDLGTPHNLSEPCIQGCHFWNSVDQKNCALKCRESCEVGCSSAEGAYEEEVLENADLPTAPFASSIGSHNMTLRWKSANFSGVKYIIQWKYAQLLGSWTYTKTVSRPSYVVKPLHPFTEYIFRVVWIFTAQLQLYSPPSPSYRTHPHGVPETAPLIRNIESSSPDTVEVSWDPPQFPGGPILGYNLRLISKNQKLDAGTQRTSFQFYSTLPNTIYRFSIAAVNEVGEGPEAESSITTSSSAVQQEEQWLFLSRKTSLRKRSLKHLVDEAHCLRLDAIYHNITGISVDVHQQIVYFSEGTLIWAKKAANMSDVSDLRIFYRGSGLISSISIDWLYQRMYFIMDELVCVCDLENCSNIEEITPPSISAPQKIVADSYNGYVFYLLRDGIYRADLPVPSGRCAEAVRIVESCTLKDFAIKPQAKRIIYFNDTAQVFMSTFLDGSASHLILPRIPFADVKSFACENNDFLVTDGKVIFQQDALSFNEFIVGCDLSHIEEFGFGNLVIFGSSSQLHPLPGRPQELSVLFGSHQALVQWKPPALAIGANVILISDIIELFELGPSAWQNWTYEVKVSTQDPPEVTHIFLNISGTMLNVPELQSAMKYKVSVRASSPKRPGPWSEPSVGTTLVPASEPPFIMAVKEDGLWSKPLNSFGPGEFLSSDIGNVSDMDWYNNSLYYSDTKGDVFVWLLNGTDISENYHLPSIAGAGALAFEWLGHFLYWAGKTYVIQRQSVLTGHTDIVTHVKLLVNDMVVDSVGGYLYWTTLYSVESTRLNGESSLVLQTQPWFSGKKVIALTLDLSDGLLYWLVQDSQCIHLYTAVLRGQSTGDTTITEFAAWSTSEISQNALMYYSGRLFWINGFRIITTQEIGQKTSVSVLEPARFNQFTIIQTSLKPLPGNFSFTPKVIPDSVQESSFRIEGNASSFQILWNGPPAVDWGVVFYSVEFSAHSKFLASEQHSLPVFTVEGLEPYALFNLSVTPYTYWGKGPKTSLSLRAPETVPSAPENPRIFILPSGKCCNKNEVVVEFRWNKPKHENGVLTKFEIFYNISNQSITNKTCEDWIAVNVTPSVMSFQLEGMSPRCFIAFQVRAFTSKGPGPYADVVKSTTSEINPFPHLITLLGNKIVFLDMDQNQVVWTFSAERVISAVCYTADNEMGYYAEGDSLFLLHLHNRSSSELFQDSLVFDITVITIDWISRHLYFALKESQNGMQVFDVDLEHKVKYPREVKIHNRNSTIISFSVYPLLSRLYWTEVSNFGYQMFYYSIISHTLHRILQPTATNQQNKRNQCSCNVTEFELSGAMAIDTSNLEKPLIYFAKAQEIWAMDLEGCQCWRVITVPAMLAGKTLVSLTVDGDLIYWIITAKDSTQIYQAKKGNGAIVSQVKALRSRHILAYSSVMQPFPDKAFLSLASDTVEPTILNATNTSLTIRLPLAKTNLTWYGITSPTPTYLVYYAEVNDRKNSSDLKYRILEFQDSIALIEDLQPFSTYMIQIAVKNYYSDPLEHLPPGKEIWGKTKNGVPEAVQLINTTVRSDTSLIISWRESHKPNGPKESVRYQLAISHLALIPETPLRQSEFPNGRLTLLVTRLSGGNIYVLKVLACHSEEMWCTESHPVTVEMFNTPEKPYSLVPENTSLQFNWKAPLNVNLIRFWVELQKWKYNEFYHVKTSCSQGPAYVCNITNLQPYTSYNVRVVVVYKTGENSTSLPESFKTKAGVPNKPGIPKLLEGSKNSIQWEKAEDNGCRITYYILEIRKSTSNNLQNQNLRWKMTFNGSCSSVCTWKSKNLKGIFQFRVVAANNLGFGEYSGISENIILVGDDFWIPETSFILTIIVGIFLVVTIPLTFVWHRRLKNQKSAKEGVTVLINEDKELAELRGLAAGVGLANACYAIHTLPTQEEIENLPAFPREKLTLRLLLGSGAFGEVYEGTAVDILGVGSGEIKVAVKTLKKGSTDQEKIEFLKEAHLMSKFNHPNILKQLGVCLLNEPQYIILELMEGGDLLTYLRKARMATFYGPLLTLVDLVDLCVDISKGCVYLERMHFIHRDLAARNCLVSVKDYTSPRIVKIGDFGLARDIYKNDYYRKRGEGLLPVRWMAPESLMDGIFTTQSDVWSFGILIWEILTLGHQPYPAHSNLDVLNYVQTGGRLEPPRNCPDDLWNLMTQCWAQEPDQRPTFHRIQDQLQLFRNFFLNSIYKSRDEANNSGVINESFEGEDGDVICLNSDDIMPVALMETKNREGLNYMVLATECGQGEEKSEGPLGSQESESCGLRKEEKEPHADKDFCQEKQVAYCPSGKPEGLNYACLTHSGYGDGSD
SMILES | remaining activity [%]
C[C@@H]1CCN(C(=O)CC#N)C[C@@H]1N(C)c1ncnc2[nH]ccc12 | 94.1
CN([C@@H](Cc1ccc(OS(=O)(=O)c2cccc3cnccc23)cc1)C(=O)N1CCN(c2ccccc2)CC1)S(=O)(=O)c1cccc2cnccc12 | 96.5
O=c1cc(-c2cccc3c2Sc2ccccc2S3)oc(N2CCOCC2)c1 | 106
c1ccc(-c2cnc(Nc3ccc(OCCN4CCCC4)cc3)s2)cc1 | 96.9
COc1cc2ncnc(Nc3cccc(Cl)c3)c2cc1OC | 91.2
Cc1nc2cc3nc(-c4cccs4)cnc3cc2n1C | 97.9
N#C/C(=C\c1ccc(O)c(O)c1)C(=O)NCc1ccccc1 | 101
Ic1cccc(CSc2nnc(-c3ccncc3)o2)c1 | 99.3
O=C(NC(NC(=S)Nc1ccc(F)c([N+](=O)[O-])c1)C(Cl)(Cl)Cl)C(c1ccccc1)c1ccccc1 (stereo not drawn) | 99.5
Cc1cn(-c2cc(NC(=O)c3ccc(C)c(Nc4nccc(-c5cccnc5)n4)c3)cc(C(F)(F)F)c2)cn1 | 99.4
CCN(CC)CCNC(=O)c1c(C)[nH]c(/C=C2\C(=O)Nc3ccc(F)cc32)c1C | 71.6
Cn1nc2c3c(cccc31)C(=O)c1ccccc1-2 | 104
O=C1c2ccccc2-c2n[nH]c3cccc1c23 | 76
CCN(CC)C(=O)c1ccc(Nc2nc(OCC3CCCCC3)c3[nH]cnc3n2)cc1 | 69.9
COc1cc2c(cc1OC)-c1[nH]nc(Nc3cccc(F)c3)c1C2 | 97.5
CN(C)C[C@H]1CCn2c(c(C3=C(c4cn(C)c5ccccc45)C(=O)NC3=O)c3ccccc32)C1 | 87.1
O=C(Nc1cccc(Nc2nccc(Nc3cccc(C(F)(F)F)c3)n2)c1)C1CC1 | 65.5
CCOc1nc(NC(=O)Cc2cc(OC)ccc2OC)cc(N)c1C#N | 97.4
COc1cc2ncnc(Nc3ccc(O)c(Br)c3)c2cc1OC | 65.7
O=C1C(Cl)=C(N2C(=O)CCC2=O)C(=O)c2ccccc21 | 95.8
Cc1cc2ncc(-c3ccccc3)nc2cc1C | 100
N#Cc1c(NC(=O)c2cccc3ccccc23)sc2c1CCCC2 | 96.8
CCN(CC)CCNC(=O)c1c(C)[nH]c(/C=C2\C(=O)Nc3ccc(Cl)cc32)c1C | 43.9
Nc1cccc(-c2cc3c(Oc4cccc(O)c4)ncnc3[nH]2)c1 | 39.7

Set 2 — concentration: 1 µM
SMILES: O=C(O)[C@H]1[C@H](Cn2nnc3ccccc3c2=O)CC[C@@H]1C(=O)c1ccc(OCCC2CCOCC2)cc1
target | test | remaining binding [%]
Epidermal growth factor receptor (EGFR, Homo sapiens, UniProt P00533, L858R) | cell-free assay, competition with immobilised ligand | 95
Serine/threonine-protein kinase BRSK1 (BRSK1, Homo sapiens, UniProt Q8TDC3) | cell-free assay, competition with immobilised ligand | 78
Inhibitor of nuclear factor kappa-B kinase subunit epsilon (IKBKE, Homo sapiens, UniProt Q14164) | cell-free assay, competition with immobilised ligand | 90
MAP kinase-activated protein kinase 5 (MAPKAPK5, Homo sapiens, UniProt Q8IW41) | cell-free assay, competition with immobilised ligand | 99
Proto-oncogene tyrosine-protein kinase receptor Ret (RET, Homo sapiens, UniProt P07949, M918T) | cell-free assay, competition with immobilised ligand | 76
Mitogen-activated protein kinase kinase kinase 13 (MAP3K13, Homo sapiens, UniProt O43283) | cell-free assay, competition with immobilised ligand | 96
Serine/threonine-protein kinase SIK1 (SIK1, Homo sapiens, UniProt P57059) | competition binding | 100
Cyclin-dependent kinase 19 (CDK19, Homo sapiens, UniProt Q9BWU1) | competition binding | 100
Dual specificity mitogen-activated protein kinase kinase 7 (MAP2K7, Homo sapiens, UniProt O14733) | cell-free assay, competition with immobilised ligand | 96
ALK tyrosine kinase receptor (ALK, Homo sapiens, UniProt Q9UM73) | cell-free assay, competition with immobilised ligand | 100

Set 3 — host: human; matrix: microsomes or S9; concentration: 2 µM; time: 0.5 h
Compound | remaining compound [%]
CCOC(=O)C1CCN(Cc2nc(N)nc(Nc3ccc(C)cc3)n2)c2ccccc21 (stereo not drawn) | 2.53
CCN(CC(O)COc1ccccc1)C(=O)c1cccc(-c2ccc(O)cc2)c1 (stereo not drawn) | 37.6
CCOC(=O)N1CCN(C(=O)c2cn(C)c(=O)cc2OC)CC1 | 98.5
O=C(Nc1c(C(c2ccc(Cl)cc2)N2CCN(CCO)CC2)oc2ccccc12)c1cccs1 (stereo not drawn) | 27.1
CN(c1cccnn1)S(=O)(=O)c1c(Cl)ccc2scnc12 | > 100
CC(C)CC1(C(=O)N2CCC(N(C)CC(=O)O)CC2)CCCC1 | 80.4
Cn1cc(-c2noc(C3CCCCC3)n2)ccc1=O | 48
CC1(C)CC(NS(=O)(=O)c2cc(Cl)ccc2Cl)CC(C)(C)N1 | 80.9
CCC(NC(=O)C1=NNC(=O)CC1)c1ncccc1C (stereo not drawn) | > 99.9
CC(=O)N1CCN(C(=O)Cn2nc(C)c(C)c2C)CC(O)C1 (stereo not drawn) | 25.2
COc1cc(NS(=O)(=O)c2ccc(-c3nnc(C4CCC4)o3)s2)cc(OC)c1 | 4.83
CCC(CN1CCN(C)CC1)NC(=O)Cc1csc(Nc2ccccc2F)n1 (stereo not drawn) | 50.6
CC(C)CCn1cc(C(=O)Nc2cccc3[nH]ccc23)c2ccccc2c1=O | 39.2
Oc1ccc(C23CCCC2C2(CCCC2)c2ccc(O)cc2O3)c(O)c1 (stereo not drawn) | 43.3
COC(C)C(C)C(=O)O[C@H]1Cc2cc3ccc(=O)oc3cc2OC1(C)C (stereo partly drawn) | 11.6
Cc1cc(C(O)CN2CCN(c3ccc(F)cc3F)CC2)c(C)s1 (stereo not drawn) | 48.9

Set 4 — host: human patients; matrix: plasma
Structure (SMILES): COc1ccc(-c2c(Nc3ccccn3)[nH]c3c(C4=CCCCC4)c(-c4ccccc4)nn3c2=O)cc1
test | setting | mean concentration
refers to: S-adenosylmethionine | 100 mg once daily, 6 h | 17.6 ng/mL
refers to: S-adenosylmethionine | 200 mg once daily, 6 h | 15.3 ng/mL
refers to: S-adenosylmethionine | 150 mg once daily, 4 h | 23 ng/mL
refers to: methionine | 200 mg once daily, 0 h | 121000 ng/mL
refers to: methionine | 150 mg once daily, 2 h | 137000 ng/mL
refers to: S-adenosylmethionine | 100 mg once daily, 8 h | 21.6 ng/mL
refers to: methionine | 400 mg once daily, 8 h | 85300 ng/mL
refers to: S-adenosylmethionine | 200 mg once daily, 8 h | 16.2 ng/mL
refers to: S-adenosylmethionine | 150 mg once daily, 2 h | 23.1 ng/mL
refers to: methionine | 100 mg once daily, 0 h | 89500 ng/mL
